Assay results of several laboratories.
A part holds a random share of what one study measured.

Series 1
Target: RNA binding protein fox-1 homolog 2, RRM domain, GST-SBP tag (RBFOX2, Homo sapiens, UniProt O43251-10, residues 100-194)
Technique: RNA Bind-n-Seq
Form: RNA
Matrix: in vitro
Concentration: 365 nM
Notes: natural RNA segment, single round, ends assumed
Relative to: no-protein control
Direction: higher = stronger binding
For `GGGAGUUCUACAGUCCGACGAUCGAACACGUCCAGCCAAUCACCUGAAAUUGGGGUGUACAGAGAGGGUGCUGCUGUCACCCAGCUAUCUCUCCUUCCUCUAUGAUCUUUGUUUUCUGCCUUCCCACCUUCUCUGGAAUUCUCGGGUGCCAA`, “RBNS enrichment (R)” read 0.427.
Under “RBNS enrichment (R)”, `GGGAGUUCUACAGUCCGACGAUCCCCAGUCAGCUUUGCCAUACUGACGUCAAUCAUUUGAGAGAAAUUAUUCAGAUUUUAUUUUUGUAUCUGUGGUAACAAAACAUUAACCAAAAGAUUUUCUGUCCAGAAGCUGGAAUUCUCGGGUGCCAA` is recorded as 0.517.
For `GGGAGUUCUACAGUCCGACGAUCCAAAUUGGGAUCCUAACCUAAGAUGCCUUAAACUUAUUAACAUGACCAUUAUAAGAAAAGAUAUAUGGAGUUGUAUCUUACUGGAAUUAAUAAACACUGCUUGACCACCGUGGAAUUCUCGGGUGCCAA`, “RBNS enrichment (R)” read 0.783.

Series 2
Target: Histone acetyltransferase KAT6A, both winged helices, GST fusion (KAT6A, Homo sapiens, UniProt Q92794, residues 1-181)
Technique: protein binding microarray
Form: double-stranded DNA, one strand shown
Matrix: in vitro
Concentration: not given
Notes: 8-mer, flanks averaged, mean of 2 arrays, mostly near background
Relative to: not given
Direction: higher = stronger binding
Construct (chain): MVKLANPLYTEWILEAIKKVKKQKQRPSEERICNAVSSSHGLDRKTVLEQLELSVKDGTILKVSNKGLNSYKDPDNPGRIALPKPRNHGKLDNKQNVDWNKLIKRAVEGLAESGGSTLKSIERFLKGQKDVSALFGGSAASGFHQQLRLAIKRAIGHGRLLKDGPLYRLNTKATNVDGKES
The E-score of `TAATGCGA` is reported as 0.118.
With `ACCCCCCG` the E-score was 0.178.
The E-score of `AGGATATA` is reported as -0.15.
`ACACCGGT` has an E-score of 0.135.

Series 3
Target: Interferon regulatory factor 5, full length, phosphomimetic (IRF5, Homo sapiens, UniProt Q13568-2, residues 1-514, K96S/S451D/S453D/S456D/S462D)
Technique: protein-binding microarray
Form: double-stranded DNA, one strand shown
Matrix: in vitro
Concentration: 250 nM
Notes: 60-bp whole probe
Added: salmon DNA 0.4 mg/ml
Relative to: random background probes
Direction: higher = stronger binding
With `GCCTAGCACTTTGGTATCGGTATCGGTTAGTGCTAGGTCTTGATTCGCTTGACGCTGCTG` the log fluorescence was 10.5 z-score.
`GCCTAGCACACTTCTCCATTTTTCTAGTCGTGCTAGGTCTTGATTCGCTTGACGCTGCTG` has a log fluorescence of 0.747 z-score.
`GCCTAGCACAACATACTCGTTTACATTTTGTGCTAGGTCTTGATTCGCTTGACGCTGCTG` has a log fluorescence of 0.908 z-score.
`GCCTAGCACTTAGGACTGCCTTTCCTTTAGTGCTAGGTCTTGATTCGCTTGACGCTGCTG` has a log fluorescence of -0.0374 z-score.

Mixed results
With `PhoQ, residues 284 288 289 292 302 303 MLMVEA` the fold induction was 1.27 (PhoP, residues 12 14 15 18 19 DLLYY (Escherichia coli, UniProt P23836); Sort-seq, measured: YFP reporter; E. coli; PhoQ-PhoP variant library, added: 10 µM Mg2+; relative to: high Mg2+ state, higher = stronger signaling).

A few entries again (series 2):
`ACACCGGT` has an E-score of 0.135.
